Measured values pooled from the literature.
Each numbered part is a random draw from the data of one study; scales do not carry over between parts.

Sample 1
Target: Histone acetyltransferase KAT6A, winged helix 1, GST fusion (KAT6A, Homo sapiens, UniProt Q92794, residues 1-85)
Method: protein binding microarray
Molecule type: double-stranded DNA, one strand shown
Medium: in vitro
Concentration: not given
Notes: 8-mer, flanks averaged, mean of 2 arrays, mostly near background
Relative to: not given
Reading: higher = stronger binding
Construct (chain): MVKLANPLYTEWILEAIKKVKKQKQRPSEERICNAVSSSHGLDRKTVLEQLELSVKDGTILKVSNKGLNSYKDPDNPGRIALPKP
| Sequence | E-score |
| --- | --- |
| ATTTTGCC | -0.0384 |
| CACATAAG | 0.00426 |
| GGGTACGA | -0.136 |
| CCAGATGG | -0.229 |
| ATTCACAG | -0.225 |
| ATACATAT | -0.0354 |
| ATGTTTCA | 0.00182 |
| ATGTAGGG | -0.0664 |

Sample 2
Target: Replicase polyprotein 1ab, nsp13 helicase (rep, Severe acute respiratory syndrome coronavirus 2, UniProt P0DTD1)
Mode: inhibitor
Concentration: 20 µM
| Compound | inhibition |
| --- | --- |
| O=C(O)c1cc(=O)c2c(OCC(O)COc3cccc4oc(C(=O)O)cc(=O)c34)cccc2o1 | -5.61% |
| COc1cc2c(Nc3ccc(NC(=O)c4ccccc4)cc3)ncnc2cc1OCCCN1CCOCC1 | 7.95% |
| CC(=O)OCC(=O)[C@H]1CC[C@H]2[C@@H]3CC[C@H]4C[C@H](O)CC[C@]4(C)[C@H]3C(=O)C[C@]12C | 5.33% |
| COc1cc2nc(N3CCN(C(=O)C4COc5ccccc5O4)CC3)nc(N)c2cc1OC (stereo not shown) | 4.01% |
| COc1ccc(Nc2nccc(NCCO)n2)cc1 | 4.81% |
| OC[C@@H](O)[C@H]1O[C@@H]2O[C@H](C(Cl)(Cl)Cl)O[C@@H]2[C@H]1O | 8.69% |
| Cc1cc(C)c(N)c(C#Cc2cccc(F)c2)n1 | 3.52% |
| O=C(O)CNC(=O)c1c(O)c2ccccc2n(Cc2ccccc2)c1=O | 4.2% |
| C[C@](O)(COc1ccc(C#N)cc1)C(=O)Nc1ccc(C#N)c(C(F)(F)F)c1 | 9.78% |
| O=C(Nc1cccc(Cl)c1)Nc1ncc(CCNc2ncnc3ccsc23)s1 | 7.5% |
| O=C(/C=C/c1ccccc1)NCCO | -4.88% |
| Nc1ccc(S(=O)(=O)c2ccc(N)cc2)cc1 | -1.96% |
| COc1ccc2cc(OCC3(C(=O)O)CN(C(=O)c4ccc(F)cc4)C3)ccc2c1 | 5.73% |
| CN(C/C=C/C#CC(C)(C)C)Cc1cccc2ccccc12 | 8.28% |
| COc1ccc(C(=O)CCC(=O)O)c2ccccc12 | 2.79% |
| S=C=Nc1cccc(NC(=S)NCCCCNC(=S)Nc2cccc(N=C=S)c2)c1 | 2.47% |
| CC(C)(C)c1ccc(S(=O)(=O)/C=C/C#N)cc1 | 99.1% |

Sample 3
Target: Interferon regulatory factor 5, full length, phosphomimetic (IRF5, Homo sapiens, UniProt Q13568-2, residues 1-514, K96S/S451D/S453D/S456D/S462D)
Method: protein-binding microarray
Molecule type: double-stranded DNA, one strand shown
Medium: in vitro
Concentration: 250 nM
Notes: 60-bp whole probe
Added: salmon DNA 0.4 mg/ml
Relative to: random background probes
Reading: higher = stronger binding
Constant ends, left off below: GCCTAGCAC … GTCTTGATTCGCTTGACGCTGCTG
| Sequence | log fluorescence [z-score] |
| --- | --- |
| GGCGGACTGGGTATCGGGACGTGCTAG | -0.032 |
| TTAGAACTGGGGATTCGATTAGTGCTA | -0.0555 |
| GACAGTCTCGGACTGGGGACGTGCTAG | -0.348 |
| TCAGGGCTCTTCTCTGAAACTGTGCTA | -0.419 |
| TCATGTCTGGGCATTTTTACTGTGCTA | -0.288 |
| GACGGTTTCCTTGTCCTGACGTGCTAG | 0.369 |
| GACGGTATCGACGATCGGGACGTGCTA | 1.91 |
| GACGGTTTCCTTTTCCGGACGTGCTAG | 1.36 |

Other studies, line by line
| Compound | target | assay | conditions | measurement | value |
| --- | --- | --- | --- | --- | --- |
| COC(=O)C1=C(C)NC(C)=C(C(=O)OC)C1c1ccccc1[N+](=O)[O-] | Replicase polyprotein 1ab, 3C-like proteinase (rep, Middle East respiratory syndrome-related coronavirus, UniProt K9N7C7) | enzyme activity | 10 µM | inhibition | 15% |

For quick reference, copied from above (sample 2):
| Compound | inhibition |
| --- | --- |
| Cc1cc(C)c(N)c(C#Cc2cccc(F)c2)n1 | 3.52% |
| O=C(O)CNC(=O)c1c(O)c2ccccc2n(Cc2ccccc2)c1=O | 4.2% |
| C[C@](O)(COc1ccc(C#N)cc1)C(=O)Nc1ccc(C#N)c(C(F)(F)F)c1 | 9.78% |
